Results pooled from the literature.
Lines come from different studies, so protocols differ. Several values in a cell are separate wells, animals, samples, runs or records. Numbers after ± are the reported error.
ADORA2A: Adenosine receptor A2a (ADORA2A, Homo sapiens, UniProt P29274)
ALB: Albumin (ALB, Homo sapiens, UniProt P02768)
uncharacterized protein: uncharacterized protein (Spodoptera exigua, UniProt F1CEY0)

SMILES = Nc1cccc(CC2SC(=O)NC2=O)c1 (stereo not drawn); target = ADORA2A; assay = radioligand displacement; setting = added: [3H]ZM241385; endpoint = ligand efficiency; value = 0.47
SMILES = CC(=O)N[C@@H](CCCNC(=N)N)C(=O)N[C@@H](CCCNC(=N)N)C(=O)N[C@H]1CSSC[C@@H](C(=O)N[C@@H](CCCNC(=N)N)C(=O)N[C@@H](CCCNC(=N)N)C(N)=O)NC(=O)[C@H](C(C)C)NC(=O)[C@@H]2CCCN2C(=O)[C@H](CC(=O)O)NC(=O)[C@H](Cc2ccc(O)cc2)NC(=O)[C@H](CO)NC(=O)[C@H](CC2CCCC2)NC(=O)[C@H](Cc2ccc(O)cc2)NC(=O)[C@H](CC(C)C)NC(=O)[C@@H]2CCCN2C1=O; target = GTPase KRas, GDP-bound (KRAS, Homo sapiens, UniProt P01116, G12D); assay = affinity selection mass spectrometry; setting = mixture library 1, added: protein titration up to 5 µM; how to read = lower is stronger binding; endpoint = lowest bound protein concentration; value = 5 µM
SMILES = Oc1ccccc1-c1n[nH]cc1-c1ccnc2ccccc12; target = Aurora kinase (IPL1, Candida albicans, UniProt Q59S66); assay = kinase binding, MIB/MS competition; test system = Candida albicans lysate; setting = 10 µM; how to read = reference: DMSO, negative = stronger binding; endpoint = log2 fold change; value = 0.2
SMILES = O=C(Nc1cccc2c(=O)cc(-c3nnn[nH]3)oc12)c1ccc(OCCCCc2ccccc2)cc1; target = LRRC8A/LRRC8C (Homo sapiens, UniProt Q8IWT6+Q8TDW0, L134K/L136K); assay = ion current, whole-cell patch clamp; test system = HCT LRRC8-/- cells; setting = 10 µM, -100 mV, L134K/L136K heteromers; endpoint = inhibition; value = 88.3% and 81.2% and 84.3% and 71.7% and 65.5% and 80.4%
SMILES = CCN1CCC[C@H]1CNC(=O)c1c(O)c(Cl)cc(Cl)c1OC; target = 12-(S)-hydroxy-5,8,10,14-eicosatetraenoic acid receptor (GPR31, Homo sapiens, UniProt O00270); assay = β-arrestin recruitment, TANGO luminescence, measured: GPR31; setting = concentration not given; how to read = reference: basal luminescence; endpoint = log2 fold change; value = -0.209
SMILES = CCCCCCCCC(=O)c1cc(O)c(O)c(O)c1; target = RXRA (Homo sapiens, UniProt P19793); assay = reporter gene, Gal4 hybrid reporter; setting = 10 µM; how to read = reference: vehicle; endpoint = activation; value = 2.31 fold
SMILES = Cn1c(=O)[nH]c(=O)n2c(CC(=O)Nc3cccc4ccccc34)cnc12; target = ADORA2A; assay = binding, radioligand competition; setting = 30 µM, added: [3H]ZM241385; endpoint = displacement; value = 16 ± 4%
SMILES = Cc1occc(=O)c1[O-].[Cl-].[W+4].c1cc[cH-]c1.c1cc[cH-]c1; target = ALB; assay = binding, van't Hoff fluorescence quenching; setting = concentration not given; endpoint = entropy change; value = 107 J/(mol K)
SMILES = Cc1nc(NC(=O)N2CCC[C@H]2C(N)=O)sc1-c1ccnc(C(C)(C)C(F)(F)F)c1; target = Tyrosine-protein kinase JAK1, JH2 pseudokinase domain (JAK1, Homo sapiens, UniProt P23458); assay = KINOMEscan; setting = 10 µM; endpoint = remaining binding; value = 100%
SMILES = C[C@@H](c1ccc(-n2cnc3c(N)ncnc32)cc1)N1CCc2nn(C)c(Cc3ccccc3)c2C1=O; target = ULK1 (Homo sapiens, UniProt O75385); assay = KINOMEscan; setting = 0.1 µM; how to read = reference: DMSO control; endpoint = remaining binding; value = 68%
SMILES = C=CC(C)(O)CCC=C(C)CCC=C(C)C (mixture of isomers); target = uncharacterized protein; assay = binding, competitor, fluorescence displacement; setting = 20 µM, pH 7.4, added: 1-NPN 20 µM; how to read = reference: 1-NPN alone; endpoint = relative fluorescence; value = 66.5%
SMILES = O=c1nc(SCc2cc(F)cc(C(F)(F)F)c2)nc(SCc2ccc3sccc3c2)[nH]1; target = TOP2A (Homo sapiens, UniProt P11388); assay = ATPase activity; setting = 3.9 µM, added: ATP 0.25 mM; endpoint = ATP hydrolysis rate; value = 1.38 µM/min and 1.3 µM/min
SMILES = C[C@H](N)C(=O)Nc1ccc2ccccc2c1; target = Puromycin-sensitive aminopeptidase (Rattus norvegicus, UniProt F1M9V7); assay = substrate; endpoint = Km; value = 10 µM
SMILES = NCCS(=O)(=O)O; target = SLC6A6 (Homo sapiens, UniProt P31641, Y138A); assay = binding, microscale thermophoresis; setting = 500 µM, room temperature, added: 50 nM labelled protein; how to read = higher = more binding; endpoint = normalised MST signal; value = 0.00234
SMILES = CCc1ccccc1-c1ccc(C(=O)NC[C@@H](N)C(=O)O)s1; target = Glutamate receptor ionotropic, NMDA 1, with GluN2C (Grin1, Rattus norvegicus, UniProt P35439, V689I); assay = receptor activation; test system = rat; setting = added: glutamate 300 µM; endpoint = log EC50; value = -2.29 µM
SMILES = COc1cc(-c2[o+]c3cc(O)cc(O)c3cc2O[C@@H]2O[C@H](CO)[C@@H](O)[C@H](O)[C@H]2O)cc(O)c1O; target = ALB; assay = van't Hoff analysis; setting = concentration not given; endpoint = binding enthalpy change; value = -7.69 kcal/mol
SMILES = COc1cc(NC(=O)c2cscn2)ccc1/N=N/c1ccccc1Cl; target = GRM4 (Homo sapiens, UniProt Q14833); assay = positive allosteric modulator, IP accumulation; test system = HEK293; setting = 30 µM, in the dark, added: low-dose orthosteric agonist; endpoint = activation; value = 104%
SMILES = C[C@H](CCC(C)(C)O)[C@H]1CC[C@H]2[C@@H]3CC=C4C[C@@](C)(O)CC[C@]4(C)[C@H]3CC[C@]12C; target = Glutamate NMDA receptor; GRIN1/GRIN2B (GRIN1/GRIN2B, Homo sapiens, UniProt Q05586+Q13224, F754A); assay = ion current, positive allosteric modulator, two-electrode voltage clamp; test system = Xenopus oocytes; setting = 10 µM, GluN1-F754A mutant, added: 100 µM glutamate and glycine; how to read = reference: absence of compound; endpoint = current potentiation; value = 157 ± 4.4%
SMILES = COc1cc(Nc2ncc3c(n2)-c2ccc(Cl)cc2C(c2c(F)cccc2OC)=NC3)ccc1C(=O)O; target = PDGFRB; assay = kinase activity; setting = 1 µM; endpoint = remaining activity; value = 92%
SMILES = N[C@H](CNC(=O)c1ccc(-c2cccc(F)c2F)s1)C(=O)O; target = Glutamate receptor ionotropic, NMDA 1, with GluN2C (Grin1, Rattus norvegicus, UniProt P35439); setting = added: glutamate 300 µM; endpoint = Hill slope; value = 1.47
SMILES = Nc1ncnc2c1ncn2[C@@H]1O[C@H](CO[P@](=O)(O)O[P@](=O)(O)O[P@@](=O)(O)S)[C@@H](O)[C@H]1O; target = GUK1 (Homo sapiens, UniProt Q16774); assay = ITC; setting = concentration not given, added: ADP; endpoint = ΔG of binding; value = -5.96 kcal/mol and -5.97 kcal/mol and -6 kcal/mol
SMILES = O=c1cc(-c2ccc([N+](=O)[O-])cc2)[nH]c2c(-c3ccc(Cl)cc3)c(Cc3ccccc3)nn12; target = Symplekin (Homo sapiens, UniProt Q92797); assay = thermal stability, binder, thermal proteome profiling; test system = RD, cell lysate; setting = 50 µM, 0.5% DMSO; how to read = reference: DMSO vehicle; endpoint = melting temperature shift; value = 5.2 °C
SMILES = Nc1ccc(C(=O)O)cc1; target = BEST1, with wild-type BEST1 (Homo sapiens, UniProt O76090, D302A); assay = ion current, whole-cell patch clamp; test system = HEK293 co-expressing mutant and wild-type; setting = concentration not given, voltage 20 mV; endpoint = current density; value = 4.73 pA/pF and 1.74 pA/pF and 3.56 pA/pF and 3.65 pA/pF and 3.71 pA/pF and 1.55 pA/pF
SMILES = Nc1ncnc2c1ncn2[C@@H]1O[C@H](COP(=O)(O)CP(=O)(O)OP(=O)(O)O)[C@@H](O)[C@H]1O; target = P2X purinoceptor 1 (P2RX1, Homo sapiens, UniProt P51575, D97A); assay = saturation binding; setting = 13 nM; endpoint = specific binding; value = 2360 corrected cpm and 1360 corrected cpm
SMILES = Cc1cc(-c2ccnc3[nH]cc(F)c23)cc(F)c1[C@@]1(O)[C@H](C)CN(C(=O)CN)C[C@@H]1C; target = JAK1 (Homo sapiens, UniProt P23458); assay = ATP/ADP probe binding, KiNativ; test system = HEK293T lysate; setting = 0.1 µM, activation loop domain 1; endpoint = probe labelling inhibition; value = 0.6%
SMILES = C=CC[C@@H]1c2ccc(OC)c(OC)c2CN2CCc3cc4c(cc3[C@H]12)OCO4; target = P2X purinoceptor 7 (P2RX7, Homo sapiens, UniProt Q99572); assay = ATP-evoked current, inhibitor, whole-cell patch clamp; test system = HEK293 transfected; setting = 3 µM; endpoint = remaining activity; value = 9.88%
SMILES = Nc1nc2c(ncn2[C@@H]2O[C@H](COP(=O)(O)OP(=O)(O)O)[C@@H](OP(=O)(O)OP(=O)(O)O)[C@H]2O)c(=O)[nH]1; target = Adenylosuccinate synthetase (purA, Escherichia coli, UniProt P0A7D4); assay = ITC; setting = concentration not given; endpoint = binding stoichiometry; value = 2.02 ± 0.03
SMILES = CCCCCCCCCCCCCC(C)=O; target = uncharacterized protein; assay = binding, competitor, fluorescence displacement; setting = 20 µM, pH 7.4, added: 1-NPN 20 µM; how to read = reference: 1-NPN alone; endpoint = relative fluorescence; value = 44.6%
SMILES = Nc1ncnc2c1ncn2[C@@H]1O[C@H](COP(=O)(O)OP(=O)(O)OP(=O)(O)O)[C@@H](O)[C@H]1O; target = Hexokinase-3 (HK3, Homo sapiens, UniProt P52790, E254A); assay = substrate; setting = mutant E254A, added: glucose 0.5 mM; endpoint = Km; value = 1800 ± 100 µM
SMILES = COC(=O)C(Cc1cccc(OC)c1I)NC(=O)CN(Cc1ccccc1)C(C)=O (stereo not drawn); target = OPRK1 (Homo sapiens, UniProt P41145); assay = binding; setting = concentration not given; endpoint = activity; value = inactive

Some of these lines once more:
SMILES = CCN1CCC[C@H]1CNC(=O)c1c(O)c(Cl)cc(Cl)c1OC; target = 12-(S)-hydroxy-5,8,10,14-eicosatetraenoic acid receptor (GPR31, Homo sapiens, UniProt O00270); assay = β-arrestin recruitment, TANGO luminescence, measured: GPR31; setting = concentration not given; how to read = reference: basal luminescence; endpoint = log2 fold change; value = -0.209
SMILES = CCCCCCCCC(=O)c1cc(O)c(O)c(O)c1; target = RXRA (Homo sapiens, UniProt P19793); assay = reporter gene, Gal4 hybrid reporter; setting = 10 µM; how to read = reference: vehicle; endpoint = activation; value = 2.31 fold
